Measurements pooled from the literature.
Lines come from different studies, so protocols differ. ± marks the error that the study gave.
qscR DNA-bound dimer: qscR, DNA-bound dimer (Pseudomonas aeruginosa, UniProt G3XD77)
ITK SH2 domain: Tyrosine-protein kinase ITK/TSK, SH2 domain (ITK, Homo sapiens, UniProt Q08881)
Sequence of UniProt Q08881 (whole entry, looked up): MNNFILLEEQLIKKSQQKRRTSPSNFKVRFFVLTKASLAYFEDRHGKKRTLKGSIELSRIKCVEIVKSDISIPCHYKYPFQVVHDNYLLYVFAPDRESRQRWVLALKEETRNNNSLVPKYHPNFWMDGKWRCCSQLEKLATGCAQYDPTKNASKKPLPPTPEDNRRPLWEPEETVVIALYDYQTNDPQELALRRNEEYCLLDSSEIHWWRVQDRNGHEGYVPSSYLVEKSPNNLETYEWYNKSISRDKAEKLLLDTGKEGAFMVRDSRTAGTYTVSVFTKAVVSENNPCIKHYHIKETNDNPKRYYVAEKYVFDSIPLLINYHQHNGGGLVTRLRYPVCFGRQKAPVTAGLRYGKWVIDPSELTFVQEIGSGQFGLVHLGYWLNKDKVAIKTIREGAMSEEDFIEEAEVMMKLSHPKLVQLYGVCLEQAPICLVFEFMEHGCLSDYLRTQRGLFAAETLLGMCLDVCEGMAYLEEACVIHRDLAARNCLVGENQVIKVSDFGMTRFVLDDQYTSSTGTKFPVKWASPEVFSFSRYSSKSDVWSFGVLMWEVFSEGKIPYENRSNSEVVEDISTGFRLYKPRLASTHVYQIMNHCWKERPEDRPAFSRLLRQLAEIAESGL
Sequence of UniProt P0A0N4 (whole entry, looked up): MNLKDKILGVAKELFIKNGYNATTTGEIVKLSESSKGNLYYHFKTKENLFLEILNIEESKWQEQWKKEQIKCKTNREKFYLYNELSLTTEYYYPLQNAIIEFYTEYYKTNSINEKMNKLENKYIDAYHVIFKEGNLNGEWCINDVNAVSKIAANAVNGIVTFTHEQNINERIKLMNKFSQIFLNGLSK
Sequence of UniProt O75676 (whole entry, looked up): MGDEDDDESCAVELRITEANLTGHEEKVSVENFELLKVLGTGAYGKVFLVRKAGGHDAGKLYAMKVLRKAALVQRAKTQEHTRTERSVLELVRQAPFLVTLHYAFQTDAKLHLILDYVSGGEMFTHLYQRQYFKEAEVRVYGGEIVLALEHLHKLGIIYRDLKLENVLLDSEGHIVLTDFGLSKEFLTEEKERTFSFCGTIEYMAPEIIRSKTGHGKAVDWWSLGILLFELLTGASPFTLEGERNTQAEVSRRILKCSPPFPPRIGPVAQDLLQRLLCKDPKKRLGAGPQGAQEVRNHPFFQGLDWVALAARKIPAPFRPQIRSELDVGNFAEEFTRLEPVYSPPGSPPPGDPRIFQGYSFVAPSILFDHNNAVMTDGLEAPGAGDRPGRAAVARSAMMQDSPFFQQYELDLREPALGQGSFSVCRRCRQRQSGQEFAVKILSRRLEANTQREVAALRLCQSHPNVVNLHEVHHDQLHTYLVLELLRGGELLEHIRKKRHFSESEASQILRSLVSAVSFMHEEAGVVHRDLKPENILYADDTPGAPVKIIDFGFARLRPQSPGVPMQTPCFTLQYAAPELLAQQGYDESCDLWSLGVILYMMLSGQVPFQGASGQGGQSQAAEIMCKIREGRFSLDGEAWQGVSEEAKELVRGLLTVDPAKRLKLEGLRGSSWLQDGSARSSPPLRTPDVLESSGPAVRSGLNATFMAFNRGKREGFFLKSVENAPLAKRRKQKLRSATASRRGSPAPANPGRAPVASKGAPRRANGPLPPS
Sequence of UniProt P51449 (whole entry, looked up): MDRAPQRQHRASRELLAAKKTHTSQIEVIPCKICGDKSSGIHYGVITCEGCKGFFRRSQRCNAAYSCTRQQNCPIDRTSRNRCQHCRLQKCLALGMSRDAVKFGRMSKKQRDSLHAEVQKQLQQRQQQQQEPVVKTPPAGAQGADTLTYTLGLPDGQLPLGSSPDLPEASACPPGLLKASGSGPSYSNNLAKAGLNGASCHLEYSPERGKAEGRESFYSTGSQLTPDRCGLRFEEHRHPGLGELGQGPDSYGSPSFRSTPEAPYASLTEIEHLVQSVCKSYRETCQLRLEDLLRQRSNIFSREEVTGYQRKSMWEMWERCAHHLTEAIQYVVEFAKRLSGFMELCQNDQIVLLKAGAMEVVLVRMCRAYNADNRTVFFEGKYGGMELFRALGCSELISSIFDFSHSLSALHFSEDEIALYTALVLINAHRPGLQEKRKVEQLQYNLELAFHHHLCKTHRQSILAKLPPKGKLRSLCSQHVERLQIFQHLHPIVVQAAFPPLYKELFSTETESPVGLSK
Sequence of UniProt P42684 (whole entry, looked up): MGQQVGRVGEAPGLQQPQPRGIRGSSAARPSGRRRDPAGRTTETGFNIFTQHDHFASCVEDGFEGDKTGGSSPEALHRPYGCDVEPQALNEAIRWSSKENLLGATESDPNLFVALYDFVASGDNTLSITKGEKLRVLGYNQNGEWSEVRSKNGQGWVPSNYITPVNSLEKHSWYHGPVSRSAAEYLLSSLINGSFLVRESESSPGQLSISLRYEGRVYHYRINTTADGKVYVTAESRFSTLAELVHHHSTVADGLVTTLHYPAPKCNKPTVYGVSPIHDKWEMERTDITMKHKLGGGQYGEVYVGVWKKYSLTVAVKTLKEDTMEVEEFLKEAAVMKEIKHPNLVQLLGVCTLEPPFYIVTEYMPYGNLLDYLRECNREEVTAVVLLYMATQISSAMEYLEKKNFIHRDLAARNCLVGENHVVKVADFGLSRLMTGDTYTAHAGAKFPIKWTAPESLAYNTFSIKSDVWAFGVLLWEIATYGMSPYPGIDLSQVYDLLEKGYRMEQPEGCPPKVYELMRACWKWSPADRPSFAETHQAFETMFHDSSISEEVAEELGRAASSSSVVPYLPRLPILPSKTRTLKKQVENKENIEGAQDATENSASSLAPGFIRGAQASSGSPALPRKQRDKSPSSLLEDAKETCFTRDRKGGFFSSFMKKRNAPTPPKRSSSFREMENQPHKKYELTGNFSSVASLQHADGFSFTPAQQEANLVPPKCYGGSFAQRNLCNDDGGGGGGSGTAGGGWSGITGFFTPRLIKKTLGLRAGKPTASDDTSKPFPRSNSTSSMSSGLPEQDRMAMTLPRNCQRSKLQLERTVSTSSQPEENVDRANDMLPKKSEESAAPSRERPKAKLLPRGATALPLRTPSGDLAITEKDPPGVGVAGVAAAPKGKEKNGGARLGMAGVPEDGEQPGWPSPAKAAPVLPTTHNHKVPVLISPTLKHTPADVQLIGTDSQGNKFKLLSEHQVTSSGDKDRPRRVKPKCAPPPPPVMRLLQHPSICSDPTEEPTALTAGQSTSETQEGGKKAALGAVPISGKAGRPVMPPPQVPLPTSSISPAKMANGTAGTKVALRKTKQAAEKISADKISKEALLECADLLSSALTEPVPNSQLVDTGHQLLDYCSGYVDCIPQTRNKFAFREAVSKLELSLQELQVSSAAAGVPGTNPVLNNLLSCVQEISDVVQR
Sequence of UniProt P05046 (whole entry, looked up): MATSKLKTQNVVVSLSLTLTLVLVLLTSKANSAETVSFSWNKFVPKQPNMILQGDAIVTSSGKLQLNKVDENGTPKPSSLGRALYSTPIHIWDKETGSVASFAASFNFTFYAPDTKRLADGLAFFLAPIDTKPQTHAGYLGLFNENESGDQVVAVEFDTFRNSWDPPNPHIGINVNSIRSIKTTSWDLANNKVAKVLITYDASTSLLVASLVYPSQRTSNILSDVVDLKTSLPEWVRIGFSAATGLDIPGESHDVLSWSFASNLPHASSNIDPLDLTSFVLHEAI
Sequence of UniProt P02786 (whole entry, looked up): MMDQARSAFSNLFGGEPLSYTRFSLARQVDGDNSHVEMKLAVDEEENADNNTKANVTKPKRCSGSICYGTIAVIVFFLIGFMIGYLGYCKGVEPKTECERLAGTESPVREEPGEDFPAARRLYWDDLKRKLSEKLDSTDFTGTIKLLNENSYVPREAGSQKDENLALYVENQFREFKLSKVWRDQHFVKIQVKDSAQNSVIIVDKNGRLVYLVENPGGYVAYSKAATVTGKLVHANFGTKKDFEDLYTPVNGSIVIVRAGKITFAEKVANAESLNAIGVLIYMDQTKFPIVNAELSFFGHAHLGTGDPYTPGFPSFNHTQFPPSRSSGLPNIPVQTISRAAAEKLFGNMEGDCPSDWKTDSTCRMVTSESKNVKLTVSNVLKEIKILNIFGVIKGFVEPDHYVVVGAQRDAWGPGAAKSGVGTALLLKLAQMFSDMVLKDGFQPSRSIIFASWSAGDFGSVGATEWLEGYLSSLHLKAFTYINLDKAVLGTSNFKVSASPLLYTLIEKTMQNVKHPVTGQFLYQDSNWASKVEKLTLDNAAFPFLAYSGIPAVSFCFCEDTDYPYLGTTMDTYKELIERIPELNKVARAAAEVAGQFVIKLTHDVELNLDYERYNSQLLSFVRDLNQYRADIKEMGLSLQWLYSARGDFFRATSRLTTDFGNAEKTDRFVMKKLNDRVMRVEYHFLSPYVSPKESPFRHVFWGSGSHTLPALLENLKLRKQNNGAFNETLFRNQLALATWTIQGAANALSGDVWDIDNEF

| Structure (SMILES) | target | test | test system | setting | Kd |
| --- | --- | --- | --- | --- | --- |
| CC(=O)N[C@H]1[C@@H](OC[C@H](NC(C)=O)C(=O)N[C@@H](CO[C@H]2O[C@H](CO)[C@H](O)[C@H](O)[C@H]2NC(C)=O)C(=O)N[C@@H](CO[C@H]2O[C@H](CO)[C@H](O)[C@H](O)[C@H]2NC(C)=O)C(=O)NCC(=O)O)O[C@H](CO)[C@H](O)[C@@H]1O | LE1 (Glycine max, UniProt P05046) | glycan microarray | – | 3 glycans per BSA | 0.044 ± 0.021 µM |
| CCCCCCCCCC(=O)CC(=O)N[C@H]1CCOC1=O | qscR DNA-bound dimer | ligand binding, FRET displacement | – | protein with DNA | 0.000392 µM |
| CC(=O)N[C@H]1[C@@H](O[C@H](C)[C@H](NC(C)=O)C(=O)N[C@H](C(=O)N[C@H](C(=O)NCC(=O)O)[C@@H](C)O[C@H]2O[C@H](CO)[C@H](O)[C@H](O)[C@H]2NC(C)=O)[C@@H](C)O[C@H]2O[C@H](CO)[C@H](O)[C@H](O)[C@H]2NC(C)=O)O[C@H](CO)[C@H](O)[C@@H]1O | Vicia villosa lectin | glycan microarray | – | 20 glycans per BSA | 0.0003 ± 0.0001 µM |
| CN(C)c1ccc(C(=C2C=CC(=[N+](C)C)C=C2)c2ccccc2)cc1 | HTH-type transcriptional regulator QacR (qacR, Staphylococcus aureus, UniProt P0A0N4) | binding, tryptophan fluorescence quenching | – | – | 1.17 µM |
| Nc1ncnc2c1ncn2[C@@H]1O[C@H](COP(=O)(O)OP(=O)(O)OP(=O)(O)O)[C@@H](O)[C@H]1O | matB (Rhodopseudomonas palustris, UniProt Q6ND88, C106A/K488A/Q457C/R286C) | binding | – | pH 7.0, 100 mM NaCl | 6.4 ± 0.6 µM |
| O=C(O)CNC(=O)c1cccnc1 | Ubiquitin carboxyl-terminal hydrolase 20, ZnF-UBD domain (USP20, Homo sapiens, UniProt Q9Y2K6) | – | – | – | > 1000 µM |
| Nc1ncnc2c1ncn2[C@@H]1O[C@H](COP(=O)(O)O)[C@@H](OP(=O)(O)O)[C@H]1O | Thermonuclease, denatured (nuc, Staphylococcus aureus, UniProt P00644) | binding | – | pH 7 | 780 µM |
| N=C(N)NCCC[C@H](N)C(=O)O | uncharacterized protein (Pelagibacter ubique, UniProt Q4FLC2) | binding, competition ITC | – | two-sets-of-sites model | ~3e-05 µM |
| O=C(CCCOc1ccc(Cl)cc1)NC1CCOC1=O (centres unmarked) | qscR DNA-bound dimer | ligand binding, FRET displacement | – | protein with DNA | 0.00101 µM |
| Nc1ncnc2c1ncn2[C@@H]1O[C@H](COP(=O)(O)OP(=O)(O)O)[C@@H](O)[C@H]1O | Cell cycle histidine kinase CckA, cytoplasmic region (Caulobacter vibrioides, UniProt Q9X688) | isothermal titration calorimetry | Caulobacter crescentus | 25 °C, together with: without c-di-GMP | 530 µM |
| CC[C@H](C)[C@H](NC(=O)[C@H](Cc1ccc(O)cc1)NC(=O)[C@H](CCC(=O)O)NC(=O)[C@H](Cc1c[nH]cn1)NC(=O)CNC(=O)[C@H](CC(=O)O)NC(=O)[C@H](CO)NC(=O)[C@H](CO)NC(=O)[C@@H](NC(=O)c1ccc2c(c1)C(=O)OC21c2ccc(N(C)C)cc2Oc2cc(N(C)C)ccc21)C(C)C)C(=O)N[C@@H](Cc1ccc(OP(=O)(O)O)cc1)C(=O)N[C@H](C(=O)N[C@@H](CC(=O)O)C(=O)N1CCC[C@H]1C(=O)N[C@@H](CCSC)C(=O)N[C@@H](CCC(N)=O)C(=O)N[C@@H](CC(C)C)C(=O)N1CCC[C@H]1C(=O)N[C@@H](CC(=O)O)C(=O)O)C(C)C | ITK SH2 domain | binding | – | – | 0.863 µM |
| COc1ccc2cc3[n+](cc2c1OC)CCc1cc2c(cc1-3)OCO2 | RORC (Homo sapiens, UniProt P51449) | SPR | ligand-binding domain | – | 108 µM |
| CSCC[C@H](NC(=O)CNC(=O)[C@H](Cc1ccccc1)NC(=O)[C@H](CC(=O)O)NC(=O)CNC(=O)c1ccc2c(c1)C(=O)OC21c2ccc(N(C)C)cc2Oc2cc(N(C)C)ccc21)C(=O)N[C@@H](CO)C(=O)N[C@@H](CCCNC(=N)N)C(=O)N[C@@H](CC(=O)O)C(=O)N[C@H](C(=O)N[C@@H](Cc1ccc(OP(=O)(O)O)cc1)C(=O)N[C@@H](CO)C(=O)N[C@H](C(=O)N[C@@H](CC(=O)O)C(=O)N[C@@H](Cc1ccc(O)cc1)C(=O)N[C@@H](Cc1ccc(O)cc1)C(=O)N[C@@H](CCCNC(=N)N)C(=O)N[C@H](C(=O)N[C@@H](CC(=O)O)C(=O)O)C(C)C)[C@@H](C)O)C(C)C | ITK SH2 domain | binding | – | – | 0.406 µM |
| CC[C@H](CO)Nc1nc(NCc2ccc(-c3ccccn3)cc2)c2ncn(C(C)C)c2n1 | RPS6KA4 (Homo sapiens, UniProt O75676) | binding, competition affinity chromatography | SH-SY5Y cell extract | – | 2.29 µM |
| CC[C@H](C)[C@H](NC(=O)[C@H](CC(=O)O)NC(=O)[C@H](C)NC(=O)[C@H](Cc1ccc(OP(=O)(O)O)cc1)NC(=O)[C@H](CCCCN)NC(=O)[C@@H](NC(=O)[C@H](CC(=O)O)NC(=O)CNC(=O)[C@H](CCCCN)NC(=O)[C@H](CCSC)NC(=O)[C@H](CC(=O)O)NC(=O)[C@H](CC(C)C)NC(=O)[C@H](CCSC)NC(=O)c1ccc2c(c1)C(=O)OC21c2ccc(N(C)C)cc2Oc2cc(N(C)C)ccc21)C(C)C)C(=O)N[C@@H](CCC(=O)O)C(=O)N[C@@H](CO)C(=O)N[C@@H](CO)C(=O)N[C@@H](CC(N)=O)C(=O)N[C@@H](CC(=O)O)C(=O)O | ITK SH2 domain | binding | – | – | 1.64 µM |
| CC[C@@H](C)[C@@H](NC(=O)[C@@H](Cc1ccc(O)cc1)NC(=O)[C@H]1CCCN1C(=O)[C@@H](CCCNC(=N)N)NC(=O)[C@H](N)Cc1c[nH]cn1)C(=O)N[C@H](C)C(=O)N[C@H](Cc1c[nH]cn1)C(=O)N[C@H](CCCNC(=N)N)C(=O)N[C@@H](C(=O)N[C@H](Cc1ccc(O)cc1)C(=O)N[C@H](CO)C(=O)N[C@H](Cc1ccccc1)C(N)=O)C(C)C | TFRC (Homo sapiens, UniProt P02786) | microscale thermophoresis | – | 2 h, OFP-tagged protein | 4.4 ± 0.8 µM |
| CC(C)C[C@H](NC(=O)[C@H](Cc1ccc(OP(=O)(O)O)cc1)NC(=O)[C@H](CCC(=O)O)NC(=O)[C@@H]1CCCN1C(=O)[C@H](CC(N)=O)NC(=O)CNC(=O)[C@@H](NC(=O)[C@H](C)NC(=O)[C@@H](NC(=O)[C@H](CO)NC(=O)[C@H](Cc1c[nH]cn1)NC(=O)c1ccc2c(c1)C(=O)OC21c2ccc(N(C)C)cc2Oc2cc(N(C)C)ccc21)[C@@H](C)O)C(C)C)C(=O)N[C@@H](CC(N)=O)C(=O)N[C@H](C(=O)N[C@H](C(=O)N[C@@H](CCC(N)=O)C(=O)N1CCC[C@H]1C(=O)N[C@H](C(=O)N[C@@H](CC(=O)O)C(=O)O)[C@@H](C)O)C(C)C)[C@@H](C)O | Guanine nucleotide exchange factor VAV2, SH2 domain (VAV2, Homo sapiens, UniProt P52735) | binding | – | – | 0.373 µM |
| CC(C)C[C@H](NC(=O)[C@H](CO)NC(=O)[C@H](CO)NC(=O)CNC(=O)[C@@H]1CCCN1C(=O)[C@H](Cc1ccc(O)cc1)NC(=O)[C@H](CC(C)C)NC(=O)[C@H](CO)NC(=O)[C@H](CS)NC(=O)[C@H](CC(C)C)NC(=O)[C@@H](N)CC(C)C)C(=O)O | Epidermal growth factor receptor, extracellular domain (EGFR, Homo sapiens, UniProt P00533) | binding, first site, surface plasmon resonance | immobilised soluble EGFR | 25 °C, model, binding, one to two | 363 µM |
| CC[C@H](C)[C@H](NC(=O)c1ccc2c(c1)C(=O)OC21c2ccc(N(C)C)cc2Oc2cc(N(C)C)ccc21)C(=O)N[C@@H](CCC(=O)O)C(=O)N[C@@H](CO)C(=O)N[C@@H](CO)C(=O)N[C@@H](CC(N)=O)C(=O)N[C@@H](Cc1ccc(O)cc1)C(=O)N[C@@H](CCSC)C(=O)N[C@@H](C)C(=O)N1CCC[C@H]1C(=O)N[C@@H](Cc1ccc(OP(=O)(O)O)cc1)C(=O)N[C@@H](CC(=O)O)C(=O)N[C@@H](CC(N)=O)C(=O)N[C@@H](Cc1ccc(O)cc1)C(=O)N[C@H](C(=O)N1CCC[C@H]1C(=O)N[C@@H](CO)C(=O)N[C@@H](C)C(=O)N[C@@H](CC(=O)O)C(=O)O)C(C)C | Tyrosine-protein kinase ABL2, SH2 domain (ABL2, Homo sapiens, UniProt P42684) | binding | – | – | 0.028 µM |
| CCCCCCCCCCCC(=O)N[C@H]1CCOC1=O | qscR DNA-bound dimer | ligand binding, FRET displacement | – | protein with DNA | 0.000196 µM |
